# Assay results collected from several papers.
# Each line is one published result; not all experiments were run side by side. ± gives the spread as reported.
# Organism: Pseudomonas aeruginosa
Compound,assay,test system,conditions,scale,endpoint,value
O=c1cc(-c2ccc(O)cc2)oc2cc(O)cc([O][Ga+][O]c3cc(O)cc4oc(-c5ccc(O)cc5)cc(=O)c34)c12,crystal violet,,"0.08 µM, 48 h, static",relative to: negative control,biofilm inhibition,~50%
Cc1c2c(cc3oc(=O)cc(-c4ccc(O)cc4)c13)C(=O)c1cccc(O)c1C2=O,,MTCC 2453,100 µg/disc,,zone of inhibition,< 8 mm
CC[C@@H](C)[C@@H](NC(=O)[C@@H](C)NC(=O)[C@@H](CCCCN)NC(=O)[C@@H](CC(C)C)NC(=O)[C@@H](CC(C)C)NC(=O)[C@H](NC(=O)[C@@H](CCCCN)NC(=O)[C@@H](CC(C)C)NC(=O)[C@@H](CCCCN)NC(=O)[C@@H](CCCCN)NC(=O)[C@@H](CCCCN)NC(=O)[C@@H](CCCCN)NC(=O)[C@@H](C)NC(=O)[C@@H](CCCCN)NC(=O)[C@@H](CO)NC(=O)[C@@H](Cc1ccccc1)NC(=O)[C@H](NC(=O)[C@@H](CCCCN)NC(=O)[C@@H](CC(C)C)NC(=O)[C@@H](Cc1ccccc1)NC(=O)[C@@H](CO)NC(=O)[C@@H](CCCCN)NC(=O)[C@@H](Cc1c[nH]c2ccccc12)NC(=O)[C@@H](CCCCN)NC(C)=O)[C@H](C)O)[C@H](C)O)C(=O)N[C@H](CO)C(=O)N[C@H](CCCCN)C(N)=O,,six isolates,,,MIC geometric mean,2.5 µM
CC[C@@H](C)[C@@H](NC(=O)[C@@H](CCCNC(=N)N)NC(=O)[C@@H](CCCNC(=N)N)NC(=O)[C@@H](Cc1c[nH]c2ccccc12)NC(=O)[C@@H](CCC(N)=O)NC(=O)[C@H](N)C(C)C)C(=O)N[C@H](CCCNC(=N)N)C(=O)N[C@@H](C(=O)N[C@H](Cc1c[nH]c2ccccc12)C(=O)N[C@@H](C(=O)N[C@@H](C(=O)N[C@H](CCCNC(=N)N)C(N)=O)[C@H](C)CC)C(C)C)C(C)C,,"PAO1, Galleria mellonella larvae","proleg injection, 20 µg per larva, 24 h post infection, 37 °C, dosed 1 h after infection",,survival,50 ± 8%
COc1ccc(-c2ccn(CC[C@](C)(C(=O)NO)S(C)(=O)=O)c(=O)c2)c(F)c1,,"PA-1950, neutropenic mouse thigh infection model",,,ED50,16.8 mg/kg
FC(F)(F)c1cc(CSc2nnc(C34CC5CC(CC(C5)C3)C4)n2-c2ccccc2)cc(C(F)(F)F)c1,,IFO 3448,"200 µg/disc, 24 h, 37 °C",,inhibition zone diameter,19 mm
CCOc1ccc(NC(=O)CSc2nc3ccccc3c(=O)n2-c2ccc(S(N)(=O)=O)cc2)cc1,"microbial growth, well diffusion",ATCC27853,"500 µg/mL, 24 h",,inhibition zone,14 mm
CC[C@H](C)[C@@H]1NC(=O)[C@@H]2CSSC[C@@H]3NC(=O)[C@H](C(C)C)NC(=O)CNC(=O)CNC(=O)[C@H](CCCNC(=N)N)NC(=O)[C@H](CCCNC(=N)N)NC(=O)CNC(=O)[C@H](C(C)C)NC(=O)[C@@H]4CSSC[C@H](NC(=O)[C@H](CC(C)C)NC(=O)[C@H](CCCNC(=N)N)NC(=O)CNC(=O)CNC(=O)[C@H](CO)NC(=O)CNC(=O)[C@H](CO)NC(=O)CNC(=O)[C@@H]5CSSC[C@H](NC(=O)[C@H](CC(=O)O)NC(=O)[C@H](CO)NC(=O)[C@H](CC(=O)O)NC(=O)[C@H](CCCNC(=N)N)NC(=O)[C@H](CCCNC(=N)N)NC(=O)[C@H](CSSC[C@H](NC1=O)C(=O)N[C@@H](CCCNC(=N)N)C(=O)NCC(=O)N[C@@H](CC(N)=O)C(=O)NCC(=O)N[C@@H](Cc1ccc(O)cc1)C(=O)N5)NC(=O)[C@H](CCCNC(=N)N)NC(=O)[C@H](CCC(N)=O)NC(=O)[C@H](CC(C)C)NC(=O)[C@H]([C@@H](C)CC)NC(=O)[C@H](CCCCN)NC(=O)[C@@H]1CCCN1C3=O)C(=O)N1CCC[C@H]1C(=O)NCC(=O)N[C@@H](C)C(=O)N2)C(=O)N[C@@H](Cc1ccc(O)cc1)C(=O)N[C@H]1CSSC[C@H](NC(=O)[C@H](Cc2ccccc2)NC(=O)[C@H](CCCNC(=N)N)NC(=O)[C@H](CCCNC(=N)N)NC(=O)[C@H](CCCNC(=N)N)NC1=O)C(=O)N[C@@H](C(C)C)C(=O)N4,,"clinical isolates 30% MDR, CAMHB",,,MIC50,1.5 µM
c1ccc(-c2ccc(CNCCNCc3ccc(-c4ccccn4)cc3)cc2)nc1,,"PA103, mouse pneumonia model","intraperitoneal, 100 µg, 18 h",,lavage protein concentration,decreased
Cc1cccc2c3c(ccc12)C1=C(C(=O)C3=O)[C@@H](C)CO1,LDH release,"J774.A1, PAO1",,relative to: mock-treated infected cells,EC50,25 µM
CC(=O)N[C@H](CCCCN)C(=O)N[C@H](CC(C)C)C(=O)N[C@H](CCCCN)C(=O)N[C@H](CO)C(=O)N[C@H](CC(C)C)C(=O)N[C@H](CC(C)C)C(=O)N[C@H](CCCCN)C(=O)N[C@@H](C(=O)N[C@H](CC(C)C)C(=O)N[C@H](CO)C(=O)N[C@H](CCCCN)C(=O)N[C@H](C)C(=O)N[C@H](CCCCN)C(=O)N[C@H](CCCCN)C(=O)N[C@H](CCCCN)C(=O)N[C@H](CCCCN)C(=O)N[C@H](CC(C)C)C(=O)N[C@H](CCCCN)C(=O)N[C@@H](C(=O)N[C@H](CC(C)C)C(=O)N[C@H](CC(C)C)C(=O)N[C@H](CCCCN)C(=O)N[C@H](C)C(=O)N[C@H](CC(C)C)C(=O)N[C@H](CO)C(=O)N[C@H](CCCCN)C(N)=O)[C@H](C)O)[C@H](C)O,,six isolates,,,MIC geometric mean,1.5 µM
CCCCCCCCCC(=O)NCCCC[C@H](NC(=O)[C@H](CC(C)C)NC(=O)[C@H](CCCCN)NC(=O)[C@H](CCCCNC(=O)[C@H](CC(C)C)NC(=O)[C@H](CCN)NC(=O)[C@H](CCCCNC(=O)[C@H](Cc1ccccc1)NC(=O)[C@@H](N)CCCN)NC(=O)[C@H](Cc1ccccc1)NC(=O)[C@@H](N)CCCN)NC(=O)[C@H](CC(C)C)NC(=O)[C@H](CCN)NC(=O)[C@H](CCCCNC(=O)[C@H](Cc1ccccc1)NC(=O)[C@@H](N)CCCN)NC(=O)[C@H](Cc1ccccc1)NC(=O)[C@@H](N)CCCN)C(N)=O,biofilm formation,PAO1,"24 h, 37 °C",,MBIC,8 µg/mL
CCCCCCCCCC1CC2CCCC3CC(CCCCCCCCC)NC(=N1)N23 (centres unmarked),bacterial growth,ATCC 27853,,,IC50,45 µM
S=c1n(CN2CCN(c3ccccn3)CC2)nc(C23CC4CC(CC(C4)C2)C3)n1-c1ccccc1,,IFO 3448,"200 µg/disc, 24 h, 37 °C",,inhibition zone diameter,21 mm
CCOC(=O)c1cnc(N/N=C/c2c(-c3ccc(C#N)cc3)nc3ncccn23)s1,"microbial growth, well diffusion",ATCC27853,100 µg/mL,,inhibition zone,15 mm
O=C(Cc1ccc(Br)cc1)N[C@H]1CCOC1=O,elastin-Congo red,PAO1 wild type,100 µM,,elastase inhibition,< 25%
CC(C)C[C@H](NC(=O)[C@@H]1CCCN1C(=O)[C@H](CCCCN)NC(=O)C[C@@H]1O[C@@H](C)[C@@H](O)[C@@H](O)[C@@H]1O)C(=O)NCCCC[C@H](NC(=O)[C@H](CC(C)C)NC(=O)[C@@H]1CCCN1C(=O)[C@H](CCCCN)NC(=O)c1ccc(O[C@@H]2O[C@H](CO)[C@H](O)[C@H](O)[C@H]2O)cc1)C(=O)N[C@@H](Cc1ccccc1)C(=O)N[C@@H](CSSC[C@H](NC(=O)[C@H](Cc1ccccc1)NC(=O)[C@H](CCCCNC(=O)[C@H](CC(C)C)NC(=O)[C@@H]1CCCN1C(=O)[C@H](CCCCN)NC(=O)C[C@@H]1O[C@@H](C)[C@@H](O)[C@@H](O)[C@@H]1O)NC(=O)[C@H](CC(C)C)NC(=O)[C@@H]1CCCN1C(=O)[C@H](CCCCN)NC(=O)c1ccc(O[C@@H]2O[C@H](CO)[C@H](O)[C@H](O)[C@H]2O)cc1)C(N)=O)C(N)=O,"biofilm formation, WST-8 staining",PAO1,24 h,,MBIC,inactive
Cn1c(C23CC4CC(CC(C4)C2)C3)nn(CCN2CCCCC2)c1=S,,IFO 3448,"200 µg/disc, 24 h, 37 °C",,inhibition zone diameter,< 10 mm
Cc1cc([N+](=O)[O-])ccc1NC(=O)CSc1nc2ccccc2c(=O)n1-c1ccc(S(N)(=O)=O)cc1,"microbial growth, well diffusion",ATCC27853,"500 µg/mL, 24 h",,inhibition zone,25 mm
CC(=O)[O-].O.O.O.O.[Ni+2].[O-]c1ccc(Br)cc1C=NCCN1CCOCC1,,,20 µL of 100 µM per disc,,inhibition zone diameter,19 mm
CNC1=C([N+](=O)[O-])C2(C(=O)Nc3ccc(Cl)cc32)C2=C(O1)C(=O)c1ccccc1C2=O (centres unmarked),growth,MTCC 2453,"250 µg/mL, 24 h",,inhibition,58.1%
CCCCCCCCCCCCCCCCC(=O)N[C@@H](CCCCN)C(=O)N[C@@H](CCCCN)C(=O)N(CCCCN)CC(=O)N[C@@H](CCCCN)C(=O)N[C@@H](CCCCN)C(N)=O,,ATCC 27853,,,MBC,128 µg/mL
O=c1cc(-c2ccccc2)oc2cc(O)cc([O][Ga+][O]c3cc(O)cc4oc(-c5ccccc5)cc(=O)c34)c12,pyocyanin secretion,,"0.08 µM, 20 h",,inhibition,67%

# Some of these lines once more:
Compound,assay,test system,conditions,scale,endpoint,value
CNC1=C([N+](=O)[O-])C2(C(=O)Nc3ccc(Cl)cc32)C2=C(O1)C(=O)c1ccccc1C2=O (centres unmarked),growth,MTCC 2453,"250 µg/mL, 24 h",,inhibition,58.1%
CCCCCCCCCCCCCCCCC(=O)N[C@@H](CCCCN)C(=O)N[C@@H](CCCCN)C(=O)N(CCCCN)CC(=O)N[C@@H](CCCCN)C(=O)N[C@@H](CCCCN)C(N)=O,,ATCC 27853,,,MBC,128 µg/mL
O=c1cc(-c2ccccc2)oc2cc(O)cc([O][Ga+][O]c3cc(O)cc4oc(-c5ccccc5)cc(=O)c34)c12,pyocyanin secretion,,"0.08 µM, 20 h",,inhibition,67%
